Measured values from different studies.

| Substance | target or system | assay | system | setting | how to read | quantity | result |
| --- | --- | --- | --- | --- | --- | --- | --- |
| Polymyxin B | Klebsiella pneumoniae | broth microdilution, MH medium | carbapenem-resistant NCCP 15864 | 16 h, 37 °C |  | MIC | 2 µM |
| colistin | Klebsiella pneumoniae | broth microdilution | K4 parental, KPC-2 |  |  | MIC | 32 µg/mL |
| Polymyxin B | Klebsiella pneumoniae | DCFH-DA fluorescence | ATCC 700603 | 4 × MIC | higher = more ROS | ROS level | 595 a.u. |
| insulin human |  | item: EPHA7 mRNA | uninfected mouse, brain | i.p., dose not given | relative to: PBS | fold change | 1.02 |
| Polymyxin B | Klebsiella pneumoniae | broth microdilution | KPC-100 producing |  |  | MIC | 8 µg/mL |
| gentamicin | Klebsiella pneumoniae | broth microdilution | ATCC 43816 acrAB overexpressor, cation-adjusted MHB |  |  | MIC | < 0.5 µg/mL |
| tunicamycin | Klebsiella pneumoniae | broth microdilution, EUCAST | DSM 30104 | 18 to 24 h, 37 °C |  | MIC | > 64 µg/mL |
| colistin | Klebsiella pneumoniae |  | ATCC 700603, ESBL SHV-18 |  |  | MIC | 0.25 µg/mL |
| Polymyxin B | Klebsiella pneumoniae | broth microdilution | ATCC 13883 | 20 h |  | MIC | < 0.5 µg/mL |

Excerpt of the above:
| Substance | target or system | assay | system | setting | how to read | quantity | result |
| --- | --- | --- | --- | --- | --- | --- | --- |
| Polymyxin B | Klebsiella pneumoniae | broth microdilution, MH medium | carbapenem-resistant NCCP 15864 | 16 h, 37 °C |  | MIC | 2 µM |
